Assay results of several laboratories.
Parts stem from different laboratories: compare values within a part only. Changes are numbered by the printed parent chain.

Set 1
Target: Histone acetyltransferase KAT6A, winged helix 2, GST fusion (KAT6A, Homo sapiens, UniProt Q92794, residues 85-181)
Technique: protein binding microarray
Molecule type: double-stranded DNA, one strand shown
Matrix: in vitro
Tested at: not given
Notes: 8-mer, flanks averaged, mean of 2 arrays, mostly near background
Relative to: not given
Direction: higher = stronger binding
Construct (chain): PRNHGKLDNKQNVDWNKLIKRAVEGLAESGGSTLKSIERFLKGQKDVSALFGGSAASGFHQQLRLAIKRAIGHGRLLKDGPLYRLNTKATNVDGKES
Sequence | E-score
TAGCAGAA | 0.172
CGTACCCC | 0.085
ATTCTGTG | 0.0474
ACGATTCA | -0.0275
AGTGTGAG | -0.0245

Set 2
Target: CCNE2, cyclin fold, Cln2 fusion (human)
Technique: yeast growth competition, sequencing
Matrix: yeast
Notes: strong parent motif
Relative to: not given
Direction: higher = stronger binding
Starting sequence: BRCA2 docking peptide (human); PSIKRNLLNEFDR
Variant | normalised enrichment score
PSIKRNLLGEFDR [N9G] | 1.32
PSIKRNLLNEFQR [D12Q] | 2.07
PSFKRNLLNEFDR [I3F] | 2.62
QSIKRNLLNEFDR [P1Q] | 2.01
PSIYRNLLNEFDR [K4Y] | 0.283
PQIKRNLLNEFDR [S2Q] | 1.68
PSIKRNLLNEFLR [D12L] | 1.56
PSIKRNLLNLFDR [E10L] | 1.11

Set 3
Target: Interferon regulatory factor 3, full length, phosphomimetic (IRF3, Homo sapiens, UniProt Q14653, residues 1-427, S386D/S396D/S398D/S402D/T404D/S405D)
Chain of UniProt Q14653 (whole entry, unmodified, looked up): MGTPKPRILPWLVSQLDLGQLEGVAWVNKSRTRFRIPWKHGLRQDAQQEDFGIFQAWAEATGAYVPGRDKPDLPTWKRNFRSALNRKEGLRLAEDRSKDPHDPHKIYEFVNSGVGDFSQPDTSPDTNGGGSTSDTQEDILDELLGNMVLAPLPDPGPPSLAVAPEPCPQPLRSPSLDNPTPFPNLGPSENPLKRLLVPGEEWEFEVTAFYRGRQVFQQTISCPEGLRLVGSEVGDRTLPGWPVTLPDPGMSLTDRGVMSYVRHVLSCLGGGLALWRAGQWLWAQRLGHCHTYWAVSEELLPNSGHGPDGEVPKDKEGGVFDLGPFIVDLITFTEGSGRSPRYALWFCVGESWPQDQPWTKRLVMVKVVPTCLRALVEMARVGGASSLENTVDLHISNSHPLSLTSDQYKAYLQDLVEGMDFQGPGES
Technique: protein-binding microarray
Molecule type: double-stranded DNA, one strand shown
Matrix: in vitro
Tested at: 2540 nM top
Notes: 60-bp whole probe
Added: salmon DNA 0.4 mg/ml
Relative to: random background probes
Direction: higher = stronger binding
Shared flanks, not repeated: GCCTAGCAC … GTCTTGATTCGCTTGACGCTGCTG
Sequence | fitted relative affinity
TTAGGTTTCGACTTTGGGTTAGTGCTA | 3.2 z-score
TTACCTCTCACGCATCTGAAAGTGCTA | 0.64 z-score
TTAGAACTGACACTGGATTAGTGCTAG | -0.0577 z-score
TTAGGTATCGGGACTGGGTGAGTGCTA | 1.23 z-score
GATGATATCGGGACTGGAGACGTGCTA | -0.233 z-score

Other studies, line by line
Molecule | target | assay | system | conditions | how to read | endpoint | result
PhoQ, residues 284 288 289 292 302 303 ASSHFY | PhoP, residues 12 14 15 18 19 AGCRL (Escherichia coli, UniProt P23836) | Sort-seq, item: YFP reporter | E. coli | PhoQ-PhoP variant library, added: 10 µM Mg2+ | relative to: high Mg2+ state, higher = stronger signaling | fold induction | 3.94
